Experimental data from different studies.
Each numbered part is a random draw from the data of one study; scales do not carry over between parts. Substitutions count along the parent as printed.

Set 1
Target: CCND3, cyclin fold, Cln2 fusion (human)
Method: yeast growth competition, sequencing
Medium: yeast
Setting: weak parent motif
Relative to: not given
Reading: higher = stronger binding
Starting sequence: SLBP docking peptide (human); ARYKRKLLINDFG; partner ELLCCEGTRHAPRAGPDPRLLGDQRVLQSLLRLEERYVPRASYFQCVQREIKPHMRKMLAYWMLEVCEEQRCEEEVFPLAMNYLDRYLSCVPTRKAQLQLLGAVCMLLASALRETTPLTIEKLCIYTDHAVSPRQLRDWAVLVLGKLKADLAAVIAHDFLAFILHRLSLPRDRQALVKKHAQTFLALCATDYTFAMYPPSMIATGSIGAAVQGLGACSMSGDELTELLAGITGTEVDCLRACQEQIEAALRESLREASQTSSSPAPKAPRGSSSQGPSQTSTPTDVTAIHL
Substitution | normalised enrichment score
A1G | 0.137
R2K | 0.21
L7C | 0.19
K6S | 0.0775
Y3V | 0.153
K6F | 0.0416
F12P | 0.19
R2D | 0.21
R2P | 0.174
D11T | 0.167
K4L | 0.157
G13I | 0.224
N10F | 0.136
R2E | 0.193
K6Q | 0.149
K4M | 0.14
R5H | 0.154
K6E | 0.148
D11Y | 0.244
N10G | 0.225
R5V | 0.151
R5A L7A | 0.292
L8E | 0.167
L8K | -0.013
G13C | 0.139

Set 2
Target: ABI1, truncated, D143A, DHFR fusion (Arabidopsis thaliana, UniProt P49597)
Method: DHFR PCA, dose-response
Medium: yeast
Setting: Hill fit, mean, not affinity
Together with: (+)-ABA, dose series
Reading: lower = more sensitive
Starting sequence: PYL1, truncated, DHFR fusion (Arabidopsis thaliana, UniProt Q8VZS8); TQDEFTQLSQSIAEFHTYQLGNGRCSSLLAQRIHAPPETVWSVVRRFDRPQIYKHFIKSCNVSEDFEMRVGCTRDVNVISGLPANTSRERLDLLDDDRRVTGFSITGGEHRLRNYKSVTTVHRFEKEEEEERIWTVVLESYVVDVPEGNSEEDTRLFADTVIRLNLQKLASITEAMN
Substitution | ABA EC50 [µM]
I172N | 240
R163M | 31.7
E131R | 6.18
K126P | 0.676
Q19I | 3.08
R163C | 22.3
P146N | 261
R163A | 22.3
I12V | 3.89
S150T | 0.778
K58G | 17.1
K126Y | 1.58
V142E | 1.8
S42I | 70.9

Set 3
Target: Ras GTPase-activating protein-binding protein 1, full length (G3BP1, Homo sapiens, UniProt Q13283)
Sequence of UniProt Q13283 (whole entry, looked up): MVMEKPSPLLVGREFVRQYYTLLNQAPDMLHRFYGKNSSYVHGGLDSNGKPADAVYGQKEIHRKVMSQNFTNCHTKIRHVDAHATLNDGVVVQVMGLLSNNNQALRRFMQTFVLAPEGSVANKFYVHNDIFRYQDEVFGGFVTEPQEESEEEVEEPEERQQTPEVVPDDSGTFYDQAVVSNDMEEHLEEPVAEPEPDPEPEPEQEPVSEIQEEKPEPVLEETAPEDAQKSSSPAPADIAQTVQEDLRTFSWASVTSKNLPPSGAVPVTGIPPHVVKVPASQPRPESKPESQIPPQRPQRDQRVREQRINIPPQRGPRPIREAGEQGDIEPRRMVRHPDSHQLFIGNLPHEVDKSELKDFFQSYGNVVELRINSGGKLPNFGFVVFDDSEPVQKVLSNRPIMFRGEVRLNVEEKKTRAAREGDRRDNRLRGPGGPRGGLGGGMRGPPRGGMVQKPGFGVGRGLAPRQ
Method: RNA Bind-n-Seq
Molecule type: RNA
Medium: in vitro
Concentration: 200 nM
Setting: whole 134-nt RNA, ends assumed
Together with: 150 mM KCl
Relative to: input library
Reading: higher = stronger binding
All sequences stand within: GGGAGUUCUACAGUCCGACGAUC … UGGAAUUCUCGGGUGUCAAGG
Strand | log2 enrichment
CCUGUGCUACACAUCGUAUGUACCGAAUCGGGCCCCCCGGGGCCCCCCGGGGCCCCCCGGAAAGUAUUAUGUUACGCCGUUCGGAUCUGC | -0.497
ACCAUGCAGGUGGGCAUCUUUGGGAAGUGGGGCAAGAGGGGGAUAGGGAGGGGGGUAACACUUUGGGAACAGGUGGUCCCAGGUCGUUUC | 1.14
AAGUCCUGUGCUACACAUCGUAUGUACCGAAUCGGGAAAAGGGGAAAAGGAAAAGGGAAAGUAUUAUGUUACGCCGUUCGGAUCUGCACU | -0.561
CCUCAAGUCCUGUGCUACACAUCGUAUGUACCGAAUCGGUUUGGUGGUUUGGAAAGUAUUAUGUUACGCCGUUCGGAUCUGCACUUCCAG | -0.336
CAAGUCCUGUGCUACACAUCGUAUGUACCGAAUCGGAAAAAGGUUUUUUUGGAGGAAAGUAUUAUGUUACGCCGUUCGGAUCUGCACUUC | -1.24
UCUCUUAUGCUAUUGGAGUUUCUCAUCCAUUAUCUAUCUCCAUUUUCCAUUAUGGUACCUCUCAGAAGAGUGAGAGAGAGCUAUUAGAGA | -1.34
UUACUACCUCCGCCUUCAUUUCCGUCAGCAAUCCCGGCGCGGGCUCCCCGGCCCCCGCCAGCCCGCCUCCCCUCGCUGUGCCCGGGACCG | 0.718
UGCUGCUUUCUGCCUUGGUGGCAGGCAGAGAACUGUCUCGUACUAGAAUUCAAGGAGGAAAGAAGAAGAAAUAAAAGAAGCUGCUCCAUU | -1.31
CACAGACAACACGCACCCACACAGGCACAGAGGGAAGGGGUUGGGAUGGGGACAGGGUGCACAGCAGGGCGGGGUAGGACCCCAGCCCCU | 1.73
CUGUGCUACACAUCGUAUGUACCGAAUCGGGGAAAAAGGGGUUUUUUUGGGGAAAAAGGGGAAAGUAUUAUGUUACGCCGUUCGGAUCUG | -0.0746
UAACUUUAGAGGAGGAUCUGAUGGAUAUGGCAGUGGACGUGGAUUUGGGGAUGGCUAUAAUGGGUAUGGAGGAGGACUUGGAGGUGGCAA | 0.178
AGUCCUGUGCUACACAUCGUAUGUACCGAAUCGGGGAAAGGGGAAAGGGGUUUGGGGAAAGUAUUAUGUUACGCCGUUCGGAUCUGCACU | 0.551
CUCAAGUCCUGUGCUACACAUCGUAUGUACCGAAUCGGGAAGGGGAAGGAAGGAAAGUAUUAUGUUACGCCGUUCGGAUCUGCACUUCCA | -0.281
GCAGGAAGUAAAAACCAAUGGAAAUGCUUCGGAUAGUGGCAGGGGUGGGGGUUGCUAAGGAAAGGGUGGGAUGGGAGUGGGUAAAGAGUU | 1.17

Set 4
Target: RING finger protein unkempt homolog, zinc fingers 1-6, SBP tag (UNK, Homo sapiens, UniProt Q9C0B0, residues 30-357)
Sequence of UniProt Q9C0B0 (30-357, looked up): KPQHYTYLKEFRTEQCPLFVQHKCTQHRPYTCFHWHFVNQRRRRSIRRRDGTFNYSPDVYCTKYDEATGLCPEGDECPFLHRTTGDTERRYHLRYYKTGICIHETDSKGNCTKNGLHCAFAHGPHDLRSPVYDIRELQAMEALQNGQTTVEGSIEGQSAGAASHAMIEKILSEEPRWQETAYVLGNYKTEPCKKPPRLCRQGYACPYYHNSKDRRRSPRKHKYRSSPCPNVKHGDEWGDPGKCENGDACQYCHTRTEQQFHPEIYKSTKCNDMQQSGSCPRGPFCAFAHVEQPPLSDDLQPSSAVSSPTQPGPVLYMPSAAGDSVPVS
Method: RNA Bind-n-Seq
Molecule type: RNA
Medium: in vitro
Concentration: 100 nM
Setting: RNA with constant flanks, vertebrate orthologous sites, ends assumed
Relative to: input RNA pool
Reading: higher = stronger binding
All sequences stand within: GGGAGUUCUACAGUCCGACGAUC … CAACAGAGGAUUGAGCAUCA
Strand | bound/input enrichment [ratio]
UAUAAGAACUCUUACAGUCUUAGAUAUUAUAAAAAUAUAUAUCUGAAUUGUAAGAGUUGUUAGCACAAGGUUUUUUUUUUUUUUUUGGCACUUGUUUUGGGUACAAGGCAUUUCUGACAU | 0.412
CCUUCAACUUGUUCUAGCUGAUGAUCCUUCCAAGUUGGGUCAGGCAUUAGUGCUAGGUACGAACAAUGUUCAUUUCUCUGUUGCCAUUGAUCAGAGACAGACAUUAAAAACAGUCAUAUA | 0.517
UAAAGCCAUCUUUUCACAUUUUCUGUAAAUAAUGGGUAGUCAUUUUUUACGUUUUCUUUUUAGUGCUGUUUUAACAAUGUGGAUAGACCAUAAAUGUACUUGCUGAACUCAUUCAUUUUU | 0.935
GCGGGGAUGGCCCGAUCCCACCGCUGUUUAUUCUGUAAACUUCAACCUGUACAUAAUGUUUAGCAUUCCUAUUGUAACAAAAUUAAUUUUUACAAAAUAAAUUAUAUUUCCUAGUCUAAU | 0.899
CCCAGGAUCCUUUGCCUGGCAGCGUGCAGCACUCUUUGCAGGGCUACCUGCCUGAGGACGACGACGUCUCCUACCAGCAGGAACCCUCGAGACACACACCUGUGCCCAGCAGUCCCGCUG | 0.252
CGAAAGCUUCAGGCACGAGCCCGAGAGUAGAAACGCAGGAUCUUGGUUAUCUUCUUCUAUUAGGAAUAGAUGUACACCUUUGUUCUCCAGGAGGAGAAGAGAAGGAAGAGAUGAAUCUUC | 0.202
GAUGAUGAUGAUGAUGAUGAUAAACAUUCUUACAUAUUUAUUGAAUGUUUAUAAGUUGUUCUCCCCUGACCCCGUAUCAAUUUUAUAUGUUUUGAAUUUUUGGAAAUGACCAUGUAUCUU | 0.432
GGGACGCUUUGACGUAAAAAUUGAAGUUAAGAGCUGAUCACAAGCACAGAUCUUUCCCACUAGCCAUUUAAAAAAGUUAAAAAAGAUACAAAAACCUACUAGUCUUGAACAAACCGUAAU | 2.64
CCGUUUGUAUGUACAUUAUUCACAUUCCUCUCUGUUGUGUUUGGAAAAAAACCAGACAUUUUAGCCUUUUUUAAGGUUAUUGAUUUAAUUUUAUUUGGUUGCAUGAAGUUGCCCUUAACC | 0.431
CUUUUUAUUGAUCAGGUCUGUAAAUGUGUACUAAAAAAAUCAGAGUCUAUUUAUAAACAAUAGUUUAUUUAAAGAGGUCUUUCCUCAUCGAUAUUGUGGUAUGCAUAAUUCUUUUUGUUA | 0.179
UCAAUCUCUUUUCCCCUGUCCUGAUUUUAAAAGCCCCCUCCUUUUUUUUUUUUCUUUUUUUAGGCAUAUGUAGUAAUAUUAGAAACAUUUAAUUUGGGAAACUUUGAUUCUUGAAAGAGA | 1.63

Set 5
Target: CEBPA, bZIP domain (human)
Method: DHFR protein complementation
Medium: yeast
Setting: single substitutions, most at no-binding floor
Relative to: wild-type JUN-FOS pair
Reading: higher = stronger binding
Starting sequence: JUN, bZIP domain (human); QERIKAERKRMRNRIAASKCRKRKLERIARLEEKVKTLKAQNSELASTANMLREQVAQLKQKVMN; partner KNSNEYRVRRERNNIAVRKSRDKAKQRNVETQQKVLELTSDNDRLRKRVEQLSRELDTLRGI
Substitution | binding fitness
E44A | -1.47 natural log
K39T | -1.48 natural log
Q41A | -1.53 natural log
K36R | -1.38 natural log
E54H | -1.36 natural log
L52T | -1.47 natural log
L45P | -1.5 natural log
T37G | -1.47 natural log
K39P | -1.44 natural log
E33H | -1.36 natural log
L52R | -1.49 natural log
R53T | -1.33 natural log
S43N | -1.53 natural log
A49H | -1.37 natural log

Excerpt of the above (set 5):
Substitution | binding fitness
K39T | -1.48 natural log
L45P | -1.5 natural log
Q41A | -1.53 natural log
T37G | -1.47 natural log
E44A | -1.47 natural log
E33H | -1.36 natural log
L52T | -1.47 natural log
L52R | -1.49 natural log
K36R | -1.38 natural log
R53T | -1.33 natural log
E54H | -1.36 natural log
